Measurements collected from several papers.
Every numbered part comes from another study and shows a few of its results, in no order. Substitutions count along the parent as printed.

Sample 1
Target: ABI1, truncated, D143A, DHFR fusion (Arabidopsis thaliana)
Technique: DHFR PCA, deep sequencing
Matrix: yeast
Notes: methotrexate growth selection, single substitutions
With: (+)-ABA 0.39 µM
Baseline: wild-type fitted maximum
Reading: higher = stronger binding
Parent: PYL1, truncated, DHFR fusion (Arabidopsis thaliana); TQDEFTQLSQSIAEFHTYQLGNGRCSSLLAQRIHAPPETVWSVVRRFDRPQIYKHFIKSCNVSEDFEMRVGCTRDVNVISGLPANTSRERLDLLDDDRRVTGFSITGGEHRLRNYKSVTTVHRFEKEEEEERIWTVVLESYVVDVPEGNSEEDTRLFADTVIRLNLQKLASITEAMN
Substitution	relative binding score
V62I	28.8%
V161F	26.7%
L93M	41.2%
E130P	74.9%
C25N	-10.6%
P146Q	21.1%
Q31G	-5.29%
E38K	-2.54%
D95C	-10.1%
N114D	20.1%
V62K	-4.17%
V40C	-4.44%
A84H	59.6%
T154G	-20.5%
D95T	-3.4%
E64G	32.8%
E139F	-17.5%
G23N	38.8%

Sample 2
Target: Interferon regulatory factor 5, full length, phosphomimetic (IRF5, Homo sapiens, UniProt Q13568-2, residues 1-514, S451D/S453D/S456D/S462D)
Technique: protein-binding microarray
Form: double-stranded DNA, one strand shown
Matrix: in vitro
Tested at: 940 nM top
Notes: 60-bp whole probe
With: salmon DNA 0.4 mg/ml
Baseline: random background probes
Reading: higher = stronger binding
All sequences stand within: GCCTAGCAC … GTCTTGATTCGCTTGACGCTGCTG
Oligonucleotide	fitted relative affinity [z-score]
GACGATTCCACTTTCGAGACGTGCTAG	2.32
TTAGGTCTACTTATCCTTTAGTGCTAG	0.139
TTAGGTTTCGGTTCCGGTAAGTGCTAG	15.5
GACGGATTCGGGACTGGGGACGTGCTA	-0.111
GACGATGTCGGGTTTCGAGACGTGCTA	1.63
GTGAGTCCCGAGAATGGTGTGGTGCTA	-0.328
GACGGTATCGGGTATCGGTACGTGCTA	6.36
TCTGGTTCCCATTCCAGGGTGTGCTAG	0.58
GACGGTTTCCGTATCCTGACGTGCTAG	2
GACGCTATCGGGTATCGAGACGTGCTA	1.01
TTAGGATTGGGGACTGGGTTAGTGCTA	0.00691
TTAGGTATCGACTTTCAGTTAGTGCTA	5
GACGATCCCAGTCTCGAGACGTGCTAG	1.22
GACGATATCGGGCATCGAGACGTGCTA	-0.138
CCTCCTCTAACTTTCCAATTGTGCTAG	1.34
TTAGGTTTCCGACTGCTTTAGTGCTAG	0.78
GTGCCTTTTTTTTTTTTTCTGTGCTAG	1.08
TCATCTCACGCATCTGAAACTGTGCTA	0.696
TTTGAACTGAGTCTCGATTAGTGCTAG	2.91
TTAGATTTCAGAGTGGATTAGTGCTAG	-0.0869
TTAGGACTGCTTCTTCTTTAGTGCTAG	0.00111
TTAGGTATCCTTCTCCTTTAGTGCTAG	0.56
TCATTCATGAAATTTTAGACTGTGCTA	0.0098

Sample 3
Target: NFE2L1, bZIP domain (human)
Technique: DHFR protein complementation
Matrix: yeast
Notes: single substitutions, most at no-binding floor
Baseline: wild-type JUN-FOS pair
Reading: higher = stronger binding
Parent: JUN, bZIP domain (human); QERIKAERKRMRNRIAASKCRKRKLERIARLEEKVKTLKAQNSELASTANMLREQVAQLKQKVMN; partner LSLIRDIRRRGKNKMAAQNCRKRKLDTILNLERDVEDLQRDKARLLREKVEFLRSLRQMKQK
Substitution	binding fitness
A40C	-1.58 natural log
E54H	-1.57 natural log
E33R	-1.43 natural log
K39A	-1.44 natural log
E44I	-1.56 natural log
S43K	-1.49 natural log
Q55P	-1.47 natural log
K36P	-1.55 natural log
T48W	-1.36 natural log
K39N	-1.39 natural log
A57G	-1.25 natural log
S47W	-1.55 natural log
I28P	-1.51 natural log
E44M	-1.3 natural log

Sample 4
Target: Ras GTPase-activating protein-binding protein 1, RRM domain (G3BP1, Homo sapiens, UniProt Q13283)
UniProt Q13283, sequence (whole entry, looked up): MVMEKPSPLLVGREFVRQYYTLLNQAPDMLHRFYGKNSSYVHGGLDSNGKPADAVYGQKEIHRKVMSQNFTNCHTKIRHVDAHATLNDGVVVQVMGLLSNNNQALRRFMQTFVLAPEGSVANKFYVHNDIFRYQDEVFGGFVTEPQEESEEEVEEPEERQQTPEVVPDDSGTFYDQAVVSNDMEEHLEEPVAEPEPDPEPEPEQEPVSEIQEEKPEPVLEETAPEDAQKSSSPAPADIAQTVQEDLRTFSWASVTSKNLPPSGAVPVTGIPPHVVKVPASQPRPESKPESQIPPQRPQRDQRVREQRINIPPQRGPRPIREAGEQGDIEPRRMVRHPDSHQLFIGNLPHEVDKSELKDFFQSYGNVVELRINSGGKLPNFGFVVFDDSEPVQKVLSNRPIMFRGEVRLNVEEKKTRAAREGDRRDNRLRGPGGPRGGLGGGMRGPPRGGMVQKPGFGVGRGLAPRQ
Technique: RNA Bind-n-Seq
Form: RNA
Matrix: in vitro
Tested at: 1 µM
Notes: whole 134-nt RNA, ends assumed
With: 150 mM KCl
Baseline: input library
Reading: higher = stronger binding
Oligonucleotide	log2 enrichment
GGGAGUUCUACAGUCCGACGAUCCACAGACAACACGAAACCACACAGACACAGAGGGAAGGGGUUGGGAUGGGGACAGGGUGCACAGCAGGGCGGGGUAGGACCCCAGCCCCUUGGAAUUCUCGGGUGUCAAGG	-0.186
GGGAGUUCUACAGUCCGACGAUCCAAGUCCUGUGCUACACAUCGUAUGUACCGAAUCGGAAAGGUUUUUUUGGAAAGGAAAGUAUUAUGUUACGCCGUUCGGAUCUGCACUUCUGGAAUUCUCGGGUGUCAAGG	-0.368
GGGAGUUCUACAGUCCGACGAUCUUUAAACUGAAGCCGCGGCCGAAAACGCCAAGAGAUUGAUGCUGUAGCUGCCCUGAGAUAACCAGGACUGUGGAAUCGGGAAGAGCUCAUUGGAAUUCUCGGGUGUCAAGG	0.0684
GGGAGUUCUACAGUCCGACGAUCAGUCCUGUGCUACACAUCGUAUGUACCGAAUCGGUUUGGUUUUUUUGGAAAAAAAGGAAAGUAUUAUGUUACGCCGUUCGGAUCUGCACUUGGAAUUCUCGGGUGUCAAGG	-0.236
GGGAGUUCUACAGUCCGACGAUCCACAGACAACACGCACCCACACAGACACAGAGGGAAGGGGCUGGGAUGGGGACAGGGUGCACAGCAGGGCGGGGUAGGACCCCAGCCCCUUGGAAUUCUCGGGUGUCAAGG	-0.0981
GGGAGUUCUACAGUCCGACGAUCCUCAAGUCCUGUGCUACACAUCGUAUGUACCGAAUCGUGUGUGUGUGUGUGUGUAAAGUAUUAUGUUACGCCGUUCGGAUCUGCACUUCCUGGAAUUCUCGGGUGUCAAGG	-0.116
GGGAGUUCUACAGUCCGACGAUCUUUCUUCUGCUGCUGCUAGUCAUGAGAUCAAGGUGGGUCUGAGAAUGGCCAUUCAGAGGCCCUGGAUAGUAACCAGGUAAUGGAUGACACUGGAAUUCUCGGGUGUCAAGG	-0.231
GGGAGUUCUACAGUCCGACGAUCUCAAGUCCUGUGCUACACAUCGUAUGUACCGAAUCGGUUUUUGGUGGUUUUUGGAAAGUAUUAUGUUACGCCGUUCGGAUCUGCACUUCCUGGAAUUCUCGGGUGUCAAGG	-0.224
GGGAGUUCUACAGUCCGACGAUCCUCAAGUCCUGUGCUACACAUCGUAUGUACCGAAUCGGGGUUGGUUGGGUUGGAAAGUAUUAUGUUACGCCGUUCGGAUCUGCACUUCCAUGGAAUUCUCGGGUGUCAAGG	-0.259
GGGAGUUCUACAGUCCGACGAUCUCCUCAAGUCCUGUGCUACACAUCGUAUGUACCGAAUCGGGCGGGCGGCGGGAAAGUAUUAUGUUACGCCGUUCGGAUCUGCACUUCCAGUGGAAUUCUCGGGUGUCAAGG	-0.119
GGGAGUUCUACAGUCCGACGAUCACCAUGCAGGUGGGCAUCUUUGGGAAGUGGGGCAAGGGGGGGAUAGGGAGGGGGGUAAAACUUUGGGAACAGGUGGUCCCAGGUCGUUUCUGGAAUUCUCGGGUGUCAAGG	-0.376
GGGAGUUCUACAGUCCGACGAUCUCCUGUGCUACACAUCGUAUGUACCGAAUCGGUUUUUUGGUUUUUUGGGGUUUUUUGGGGAAAGUAUUAUGUUACGCCGUUCGGAUCUGCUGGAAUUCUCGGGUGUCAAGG	-0.253
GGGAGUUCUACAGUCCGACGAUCCUCAAGUCCUGUGCUACACAUCGUAUGUACCGAAUCGGGAAGGAAGGGGAAGGAAAGUAUUAUGUUACGCCGUUCGGAUCUGCACUUCCAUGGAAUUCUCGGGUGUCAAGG	-0.275
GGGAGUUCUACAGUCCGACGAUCCCUGUGCUACACAUCGUAUGUACCGAAUCAAACCCCCAAACCCCCCCAAACCCCCCCAAAAAAGUAUUAUGUUACGCCGUUCGGAUCUGCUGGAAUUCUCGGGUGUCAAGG	-0.0905

Sample 5
Target: CCND1, cyclin fold, Cln2 fusion (human)
Technique: yeast growth competition, sequencing
Matrix: yeast
Notes: weak parent motif
Baseline: not given
Reading: higher = stronger binding
Parent: CDKN1B docking peptide (human); PSACRNLFGPVDH
Substitution	normalised enrichment score
P10H	-0.00331
N6G	0.107
N6R	1.15
N6Q	1.52
C4H	-0.168
F8Y	-0.558
S2P	0.944
F8E	0.159
A3E	0.879
G9T	0.299
G9E	0.647
H13D	0.853
A3Q	0.476
G9M	0.422
S2E	0.539
P1Q	1.03
P10E	0.889
D12A	0.867
V11C	0.728
